{"data": "Results of several laboratories", "note": "A part holds a random share of what one study measured. Several values in a cell are separate wells, animals, samples, runs or records.", "sequence of UniProt P11362 (whole entry, looked up)": "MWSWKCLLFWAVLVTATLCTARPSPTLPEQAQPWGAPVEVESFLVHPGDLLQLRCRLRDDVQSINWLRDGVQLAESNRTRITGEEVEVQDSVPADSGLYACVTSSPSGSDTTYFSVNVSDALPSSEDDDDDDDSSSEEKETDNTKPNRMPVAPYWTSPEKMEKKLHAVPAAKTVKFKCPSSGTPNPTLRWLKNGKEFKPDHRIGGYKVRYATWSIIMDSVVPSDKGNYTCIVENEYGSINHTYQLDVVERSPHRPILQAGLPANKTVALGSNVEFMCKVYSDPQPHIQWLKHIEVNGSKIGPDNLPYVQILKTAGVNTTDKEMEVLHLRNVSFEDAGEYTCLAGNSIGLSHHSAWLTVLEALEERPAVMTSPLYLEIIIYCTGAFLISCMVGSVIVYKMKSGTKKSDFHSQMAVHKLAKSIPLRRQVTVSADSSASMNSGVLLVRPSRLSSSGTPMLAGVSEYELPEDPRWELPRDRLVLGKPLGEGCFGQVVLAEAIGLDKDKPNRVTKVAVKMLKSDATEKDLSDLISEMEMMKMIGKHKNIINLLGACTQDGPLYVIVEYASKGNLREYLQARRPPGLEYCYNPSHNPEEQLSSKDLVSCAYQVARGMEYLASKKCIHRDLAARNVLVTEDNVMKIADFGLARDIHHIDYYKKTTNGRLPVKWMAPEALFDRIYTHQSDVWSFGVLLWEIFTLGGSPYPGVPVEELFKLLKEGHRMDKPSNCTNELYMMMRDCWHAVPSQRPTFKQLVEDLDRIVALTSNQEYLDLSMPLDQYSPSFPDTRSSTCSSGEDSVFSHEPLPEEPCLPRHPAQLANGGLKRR", "sequence of UniProt P42336 (whole entry, unmodified, looked up)": "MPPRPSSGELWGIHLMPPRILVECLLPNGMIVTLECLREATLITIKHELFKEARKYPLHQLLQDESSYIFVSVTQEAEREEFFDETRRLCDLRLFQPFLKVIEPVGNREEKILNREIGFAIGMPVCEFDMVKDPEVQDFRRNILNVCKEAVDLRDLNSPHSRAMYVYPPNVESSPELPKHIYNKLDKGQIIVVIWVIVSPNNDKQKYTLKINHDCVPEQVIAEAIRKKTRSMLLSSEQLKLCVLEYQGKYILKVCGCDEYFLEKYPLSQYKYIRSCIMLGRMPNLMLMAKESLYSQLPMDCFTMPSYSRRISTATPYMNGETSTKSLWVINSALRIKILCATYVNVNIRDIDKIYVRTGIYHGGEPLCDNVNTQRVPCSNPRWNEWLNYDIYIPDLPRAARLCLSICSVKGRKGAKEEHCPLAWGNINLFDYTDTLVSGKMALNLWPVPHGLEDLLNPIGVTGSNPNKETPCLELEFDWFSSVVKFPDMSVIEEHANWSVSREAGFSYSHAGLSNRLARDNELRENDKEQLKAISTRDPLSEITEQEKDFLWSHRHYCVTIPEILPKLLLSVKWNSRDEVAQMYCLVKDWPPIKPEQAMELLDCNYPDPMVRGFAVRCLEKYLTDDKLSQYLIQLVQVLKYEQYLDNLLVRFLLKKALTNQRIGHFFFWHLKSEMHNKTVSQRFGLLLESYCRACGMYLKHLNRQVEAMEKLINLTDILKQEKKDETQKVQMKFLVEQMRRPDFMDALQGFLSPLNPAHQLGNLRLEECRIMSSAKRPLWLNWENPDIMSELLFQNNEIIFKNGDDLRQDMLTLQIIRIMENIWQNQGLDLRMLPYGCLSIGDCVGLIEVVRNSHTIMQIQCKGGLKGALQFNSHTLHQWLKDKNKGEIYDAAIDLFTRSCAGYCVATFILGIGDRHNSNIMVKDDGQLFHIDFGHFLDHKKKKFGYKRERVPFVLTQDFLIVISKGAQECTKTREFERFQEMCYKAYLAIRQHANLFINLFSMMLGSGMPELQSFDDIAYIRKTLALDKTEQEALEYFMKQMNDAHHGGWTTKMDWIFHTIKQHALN", "sequence of UniProt Q9UKE5 (whole entry, looked up)": "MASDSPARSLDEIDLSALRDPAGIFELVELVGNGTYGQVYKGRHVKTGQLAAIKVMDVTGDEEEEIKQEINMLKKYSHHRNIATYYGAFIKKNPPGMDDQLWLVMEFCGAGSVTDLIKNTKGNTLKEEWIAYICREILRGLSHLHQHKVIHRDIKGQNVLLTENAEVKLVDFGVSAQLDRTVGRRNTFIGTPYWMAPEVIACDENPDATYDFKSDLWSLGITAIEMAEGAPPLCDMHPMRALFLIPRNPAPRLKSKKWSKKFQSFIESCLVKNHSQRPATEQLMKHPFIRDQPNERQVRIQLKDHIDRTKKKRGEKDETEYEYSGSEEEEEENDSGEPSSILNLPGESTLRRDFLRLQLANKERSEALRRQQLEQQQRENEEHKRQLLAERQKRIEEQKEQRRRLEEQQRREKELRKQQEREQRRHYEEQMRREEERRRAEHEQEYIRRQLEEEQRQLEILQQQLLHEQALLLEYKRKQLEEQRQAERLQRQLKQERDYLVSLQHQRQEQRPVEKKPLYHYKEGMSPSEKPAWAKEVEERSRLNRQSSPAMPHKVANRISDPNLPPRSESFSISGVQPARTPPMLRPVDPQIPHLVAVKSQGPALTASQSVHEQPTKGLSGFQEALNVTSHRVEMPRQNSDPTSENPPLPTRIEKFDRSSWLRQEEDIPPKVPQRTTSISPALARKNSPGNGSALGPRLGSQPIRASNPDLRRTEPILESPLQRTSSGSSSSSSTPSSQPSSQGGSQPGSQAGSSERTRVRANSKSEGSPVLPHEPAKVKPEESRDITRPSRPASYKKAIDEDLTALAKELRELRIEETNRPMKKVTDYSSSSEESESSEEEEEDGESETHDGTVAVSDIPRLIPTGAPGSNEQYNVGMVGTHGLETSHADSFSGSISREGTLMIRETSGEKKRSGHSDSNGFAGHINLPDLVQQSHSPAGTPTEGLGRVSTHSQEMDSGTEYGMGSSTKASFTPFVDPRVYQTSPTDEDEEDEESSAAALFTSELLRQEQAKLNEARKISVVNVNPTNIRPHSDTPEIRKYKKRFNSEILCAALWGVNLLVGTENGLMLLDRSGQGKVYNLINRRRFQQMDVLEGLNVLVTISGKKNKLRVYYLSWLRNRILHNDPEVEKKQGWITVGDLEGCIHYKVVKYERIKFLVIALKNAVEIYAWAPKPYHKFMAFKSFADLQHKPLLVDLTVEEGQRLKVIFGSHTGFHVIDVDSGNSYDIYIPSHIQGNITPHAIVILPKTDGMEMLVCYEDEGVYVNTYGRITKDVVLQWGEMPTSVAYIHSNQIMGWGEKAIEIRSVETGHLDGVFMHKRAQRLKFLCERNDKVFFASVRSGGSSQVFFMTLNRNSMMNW", "sequence of UniProt O43318 (whole entry, looked up)": "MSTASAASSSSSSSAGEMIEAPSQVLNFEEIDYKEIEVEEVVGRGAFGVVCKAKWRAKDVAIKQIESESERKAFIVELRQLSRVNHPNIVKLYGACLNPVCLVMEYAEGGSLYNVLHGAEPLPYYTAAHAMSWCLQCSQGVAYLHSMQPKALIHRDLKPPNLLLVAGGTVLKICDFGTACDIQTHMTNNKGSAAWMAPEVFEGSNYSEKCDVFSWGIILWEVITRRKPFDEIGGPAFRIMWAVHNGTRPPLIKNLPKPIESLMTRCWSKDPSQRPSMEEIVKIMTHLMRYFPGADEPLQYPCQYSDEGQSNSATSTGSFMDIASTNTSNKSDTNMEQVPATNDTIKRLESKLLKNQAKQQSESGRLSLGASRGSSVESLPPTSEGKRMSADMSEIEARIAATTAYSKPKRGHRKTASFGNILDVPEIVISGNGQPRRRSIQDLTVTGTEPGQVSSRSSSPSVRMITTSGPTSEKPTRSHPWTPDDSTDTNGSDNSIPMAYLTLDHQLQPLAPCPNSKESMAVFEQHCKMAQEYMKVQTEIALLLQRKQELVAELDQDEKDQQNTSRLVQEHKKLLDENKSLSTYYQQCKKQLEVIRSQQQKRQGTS"}
{"data": "Series 1", "target": "Sal-like protein 4, full length isoform A (SALL4, Homo sapiens, UniProt Q9UJQ4, residues 1-1053)", "technique": "universal PBM", "form": "double-stranded DNA, one strand shown", "matrix": "in vitro", "concentration": "600 nM", "setting": "8-mer, flanks averaged, mean of replicates", "reading": "higher = stronger binding", "sequence of UniProt Q9UJQ4 (whole entry, looked up)": "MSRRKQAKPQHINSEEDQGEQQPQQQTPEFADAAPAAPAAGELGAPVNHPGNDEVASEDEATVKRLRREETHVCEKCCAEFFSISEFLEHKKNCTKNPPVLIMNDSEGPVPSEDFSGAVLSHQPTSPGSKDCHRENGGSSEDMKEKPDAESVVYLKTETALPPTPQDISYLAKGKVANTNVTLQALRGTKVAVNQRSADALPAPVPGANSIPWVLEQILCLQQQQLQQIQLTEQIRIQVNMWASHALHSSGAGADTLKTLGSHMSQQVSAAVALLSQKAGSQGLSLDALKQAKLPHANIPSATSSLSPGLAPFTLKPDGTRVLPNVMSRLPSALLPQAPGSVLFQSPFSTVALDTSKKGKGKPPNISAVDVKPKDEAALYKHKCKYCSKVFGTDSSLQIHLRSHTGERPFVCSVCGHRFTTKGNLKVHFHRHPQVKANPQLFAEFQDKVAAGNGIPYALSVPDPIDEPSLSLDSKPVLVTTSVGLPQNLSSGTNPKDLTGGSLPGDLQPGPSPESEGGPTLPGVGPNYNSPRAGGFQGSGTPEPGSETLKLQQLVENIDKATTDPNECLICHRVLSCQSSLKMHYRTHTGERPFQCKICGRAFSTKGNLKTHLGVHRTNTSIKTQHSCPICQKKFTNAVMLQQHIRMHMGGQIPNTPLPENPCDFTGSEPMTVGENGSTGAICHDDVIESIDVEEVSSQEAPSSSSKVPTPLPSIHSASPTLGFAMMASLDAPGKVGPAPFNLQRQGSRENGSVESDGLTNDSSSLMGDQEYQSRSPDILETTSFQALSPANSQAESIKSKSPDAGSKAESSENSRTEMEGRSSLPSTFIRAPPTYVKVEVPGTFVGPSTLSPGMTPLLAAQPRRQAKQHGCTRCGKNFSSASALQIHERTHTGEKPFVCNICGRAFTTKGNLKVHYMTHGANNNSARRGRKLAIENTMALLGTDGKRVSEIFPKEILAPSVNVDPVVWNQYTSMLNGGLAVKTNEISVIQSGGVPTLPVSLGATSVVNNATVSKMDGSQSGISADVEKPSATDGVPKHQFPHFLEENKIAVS"}
{"Oligonucleotide": "CCGGTCTA", "E-score": -0.263}
{"Oligonucleotide": "ACCAGGCC", "E-score": -0.297}
{"Oligonucleotide": "CTATTAAA", "E-score": 0.283}
{"Oligonucleotide": "ACTTTTCG", "E-score": 0.0561}
{"Oligonucleotide": "AAGGTCTC", "E-score": 0.00713}
{"Oligonucleotide": "ATGACGGG", "E-score": -0.0459}
{"Oligonucleotide": "AACACTAA", "E-score": 0.191}
{"Oligonucleotide": "GCATACTA", "E-score": 0.0593}
{"data": "Series 2", "cell line": "mouse MPNST tumor cells", "technique": "high-content immunofluorescence imaging", "measured": "nuclear SOX9", "concentration": "10 µM", "time": "12 h", "setting": "mean of 2 replicates", "reference": "DMSO control", "reading": "higher = more nuclear SOX9"}
{"SMILES": "O=C1OC(OC(=O)c2cccnc2Nc2cccc(C(F)(F)F)c2)c2ccccc21 (stereo not drawn)", "nuclear SOX9 intensity": "102 % of DMSO"}
{"SMILES": "COc1ccc(S(=O)(=O)Nc2nc(-c3cccc([N+](=O)[O-])c3)cs2)cc1OC", "nuclear SOX9 intensity": "102 % of DMSO"}
{"SMILES": "CC1COc2c(N3CCN(C)CC3)c(F)cc3c(=O)c(C(=O)O)cn1c23 (stereo not drawn)", "nuclear SOX9 intensity": "100 % of DMSO"}
{"data": "Series 3", "host": "human", "matrix": "microsomes or S9", "concentration": "2 µM", "time": "0.5 h"}
{"SMILES": "CCC(C(=O)N(C)C)N(c1ccc(C)c(C)c1)S(C)(=O)=O (stereo not drawn)", "remaining compound [%]": 74.2}
{"SMILES": "CN1CCN(CC2COc3cc4ncnc(Nc5ccc(F)c(Cl)c5)c4cc3O2)CC1 (stereo not drawn)", "remaining compound [%]": 82.7}
{"SMILES": "CCn1c(C)c(C)c2c(-c3ccccc3)c(C(OC(C)(C)C)C(=O)O)c(C)nc21 (stereo not drawn)", "remaining compound [%]": "> 100"}
{"data": "Series 4", "Structure (SMILES)": "Cc1c(C(=O)O)cc(-c2ccc(C3CCNCC3)cc2)c2ccc(-c3ccc(C(F)(F)F)cc3)cc12", "technique": "competition with immobilised ligand", "concentration": "1 µM"}
{"target": "ERN1 (Homo sapiens, UniProt O75460)", "test": "cell-free assay", "remaining binding [%]": 100}
{"target": "PIK3CA (Homo sapiens, UniProt P42336, E542K)", "test": "cell-free assay", "remaining binding [%]": 99}
{"target": "EGFR (Homo sapiens, UniProt P00533, del746-750)", "test": "cell-free assay", "remaining binding [%]": 100}
{"target": "FGFR1 (Homo sapiens, UniProt P11362)", "test": "cell-free assay", "remaining binding [%]": 100}
{"target": "SRC (Homo sapiens, UniProt P12931)", "test": "cell-free assay", "remaining binding [%]": 100}
{"target": "MET (Homo sapiens, UniProt P08581, Y1235D)", "test": "cell-free assay", "remaining binding [%]": 100}
{"target": "TNIK (Homo sapiens, UniProt Q9UKE5)", "test": "binding", "remaining binding [%]": 100}
{"target": "STK3 (Homo sapiens, UniProt Q13188)", "test": "binding", "remaining binding [%]": 100}
{"target": "PIM1 (Homo sapiens, UniProt P11309)", "test": "binding", "remaining binding [%]": 100}
{"target": "TXK (Homo sapiens, UniProt P42681)", "test": "binding", "remaining binding [%]": 100}
{"target": "STK10 (Homo sapiens, UniProt O94804)", "test": "binding", "remaining binding [%]": 100}
{"target": "MAP3K7 (Homo sapiens, UniProt O43318)", "test": "binding", "remaining binding [%]": 100}
{"target": "HCK (Homo sapiens, UniProt P08631)", "test": "cell-free assay", "remaining binding [%]": 100}
{"target": "ACVR1B (Homo sapiens, UniProt P36896)", "test": "cell-free assay", "remaining binding [%]": 100}
{"data": "Single results of other studies"}
{"SMILES": "CCOc1ccc(Nc2c3c(nc4ccccc24)CCC3)cc1", "target or system": "Leishmania donovani", "test": "parasite killing", "test system": "DD8, promastigotes", "conditions": "0.66 µM, 72 h", "measurement": "inhibition", "result": "24% and 20%"}
{"SMILES": "CC(C)n1cnc(-c2ccc(F)cc2)c1-c1ncc(C(=O)Nc2ccc(N3CCN(C)CC3)cc2)[nH]1", "test": "phase 2a trial", "test system": "idiopathic pulmonary fibrosis patients", "conditions": "oral, dose not given, urine red cells, grade 3, all arms", "measurement": "patients with TEAE", "result": "0%"}
{"SMILES": "O=C(COc1ccc(Cl)cc1)NC1CCC(NC(=O)COc2ccc(Cl)cc2)CC1 (stereo not drawn)", "target or system": "HEK293T ATF4-firefly luciferase reporter", "test": "integrated stress response, measured: ATF4", "conditions": "concentration not given", "how to read": "reference: DMSO", "measurement": "reporter signal", "result": "72.7% and 84.3% and 60.8% and 69.6% and 67% and 64.3% and 88% and 69.8%"}
{"SMILES": "c1ccc(Oc2ccc(Nc3c4c(nc5ccccc35)CCC4)cc2)cc1", "target or system": "Leishmania donovani", "test": "parasite viability, resazurin", "test system": "DD8, promastigotes", "conditions": "0.33 µM", "measurement": "inhibition", "result": "30% and 19% and 24% and 34% and 20%"}
{"SMILES": "Cc1sc(N)c(C(=O)c2cccc(C(F)(F)F)c2)c1C", "target or system": "Sarcocystis neurona", "test": "parasite growth", "conditions": "concentration not given, first screen", "how to read": "reference: untreated", "measurement": "log2 fold change", "result": 0.27}
{"note": "For quick reference, copied from above (series 4):"}
{"target": "FGFR1 (Homo sapiens, UniProt P11362)", "test": "cell-free assay", "remaining binding [%]": 100}
{"target": "SRC (Homo sapiens, UniProt P12931)", "test": "cell-free assay", "remaining binding [%]": 100}
{"target": "MET (Homo sapiens, UniProt P08581, Y1235D)", "test": "cell-free assay", "remaining binding [%]": 100}
